Measurements collected from several papers.
Numbered parts are unrelated; each lists some results of a single study.
UniProt P10721, sequence (whole entry, unmodified, looked up): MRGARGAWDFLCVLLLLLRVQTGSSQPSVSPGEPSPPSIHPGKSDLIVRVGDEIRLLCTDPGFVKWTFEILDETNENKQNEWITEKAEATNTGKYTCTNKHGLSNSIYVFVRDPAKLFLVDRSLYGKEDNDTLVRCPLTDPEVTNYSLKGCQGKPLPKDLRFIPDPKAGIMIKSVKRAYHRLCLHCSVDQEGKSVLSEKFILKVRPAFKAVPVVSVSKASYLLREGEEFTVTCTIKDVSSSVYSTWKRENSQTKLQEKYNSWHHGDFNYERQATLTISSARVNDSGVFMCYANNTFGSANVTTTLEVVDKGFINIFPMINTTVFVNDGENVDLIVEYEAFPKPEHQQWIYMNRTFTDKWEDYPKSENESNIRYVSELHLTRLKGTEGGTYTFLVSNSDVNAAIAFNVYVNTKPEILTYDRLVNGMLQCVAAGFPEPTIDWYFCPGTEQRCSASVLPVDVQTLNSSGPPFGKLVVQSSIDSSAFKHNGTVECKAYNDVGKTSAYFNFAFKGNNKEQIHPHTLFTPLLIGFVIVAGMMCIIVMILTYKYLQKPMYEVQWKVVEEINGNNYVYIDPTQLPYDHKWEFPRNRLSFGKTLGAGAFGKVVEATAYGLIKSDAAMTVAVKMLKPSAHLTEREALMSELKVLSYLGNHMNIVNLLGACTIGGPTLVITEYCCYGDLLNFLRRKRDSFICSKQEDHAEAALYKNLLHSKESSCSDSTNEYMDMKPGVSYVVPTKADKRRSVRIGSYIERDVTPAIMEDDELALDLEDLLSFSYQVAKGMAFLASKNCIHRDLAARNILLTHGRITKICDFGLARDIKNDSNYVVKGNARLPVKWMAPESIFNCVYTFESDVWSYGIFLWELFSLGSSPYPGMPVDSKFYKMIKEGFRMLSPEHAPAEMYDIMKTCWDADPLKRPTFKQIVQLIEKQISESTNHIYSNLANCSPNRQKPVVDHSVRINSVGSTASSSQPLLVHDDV
UniProt Q9Y3S1, sequence (whole entry, looked up): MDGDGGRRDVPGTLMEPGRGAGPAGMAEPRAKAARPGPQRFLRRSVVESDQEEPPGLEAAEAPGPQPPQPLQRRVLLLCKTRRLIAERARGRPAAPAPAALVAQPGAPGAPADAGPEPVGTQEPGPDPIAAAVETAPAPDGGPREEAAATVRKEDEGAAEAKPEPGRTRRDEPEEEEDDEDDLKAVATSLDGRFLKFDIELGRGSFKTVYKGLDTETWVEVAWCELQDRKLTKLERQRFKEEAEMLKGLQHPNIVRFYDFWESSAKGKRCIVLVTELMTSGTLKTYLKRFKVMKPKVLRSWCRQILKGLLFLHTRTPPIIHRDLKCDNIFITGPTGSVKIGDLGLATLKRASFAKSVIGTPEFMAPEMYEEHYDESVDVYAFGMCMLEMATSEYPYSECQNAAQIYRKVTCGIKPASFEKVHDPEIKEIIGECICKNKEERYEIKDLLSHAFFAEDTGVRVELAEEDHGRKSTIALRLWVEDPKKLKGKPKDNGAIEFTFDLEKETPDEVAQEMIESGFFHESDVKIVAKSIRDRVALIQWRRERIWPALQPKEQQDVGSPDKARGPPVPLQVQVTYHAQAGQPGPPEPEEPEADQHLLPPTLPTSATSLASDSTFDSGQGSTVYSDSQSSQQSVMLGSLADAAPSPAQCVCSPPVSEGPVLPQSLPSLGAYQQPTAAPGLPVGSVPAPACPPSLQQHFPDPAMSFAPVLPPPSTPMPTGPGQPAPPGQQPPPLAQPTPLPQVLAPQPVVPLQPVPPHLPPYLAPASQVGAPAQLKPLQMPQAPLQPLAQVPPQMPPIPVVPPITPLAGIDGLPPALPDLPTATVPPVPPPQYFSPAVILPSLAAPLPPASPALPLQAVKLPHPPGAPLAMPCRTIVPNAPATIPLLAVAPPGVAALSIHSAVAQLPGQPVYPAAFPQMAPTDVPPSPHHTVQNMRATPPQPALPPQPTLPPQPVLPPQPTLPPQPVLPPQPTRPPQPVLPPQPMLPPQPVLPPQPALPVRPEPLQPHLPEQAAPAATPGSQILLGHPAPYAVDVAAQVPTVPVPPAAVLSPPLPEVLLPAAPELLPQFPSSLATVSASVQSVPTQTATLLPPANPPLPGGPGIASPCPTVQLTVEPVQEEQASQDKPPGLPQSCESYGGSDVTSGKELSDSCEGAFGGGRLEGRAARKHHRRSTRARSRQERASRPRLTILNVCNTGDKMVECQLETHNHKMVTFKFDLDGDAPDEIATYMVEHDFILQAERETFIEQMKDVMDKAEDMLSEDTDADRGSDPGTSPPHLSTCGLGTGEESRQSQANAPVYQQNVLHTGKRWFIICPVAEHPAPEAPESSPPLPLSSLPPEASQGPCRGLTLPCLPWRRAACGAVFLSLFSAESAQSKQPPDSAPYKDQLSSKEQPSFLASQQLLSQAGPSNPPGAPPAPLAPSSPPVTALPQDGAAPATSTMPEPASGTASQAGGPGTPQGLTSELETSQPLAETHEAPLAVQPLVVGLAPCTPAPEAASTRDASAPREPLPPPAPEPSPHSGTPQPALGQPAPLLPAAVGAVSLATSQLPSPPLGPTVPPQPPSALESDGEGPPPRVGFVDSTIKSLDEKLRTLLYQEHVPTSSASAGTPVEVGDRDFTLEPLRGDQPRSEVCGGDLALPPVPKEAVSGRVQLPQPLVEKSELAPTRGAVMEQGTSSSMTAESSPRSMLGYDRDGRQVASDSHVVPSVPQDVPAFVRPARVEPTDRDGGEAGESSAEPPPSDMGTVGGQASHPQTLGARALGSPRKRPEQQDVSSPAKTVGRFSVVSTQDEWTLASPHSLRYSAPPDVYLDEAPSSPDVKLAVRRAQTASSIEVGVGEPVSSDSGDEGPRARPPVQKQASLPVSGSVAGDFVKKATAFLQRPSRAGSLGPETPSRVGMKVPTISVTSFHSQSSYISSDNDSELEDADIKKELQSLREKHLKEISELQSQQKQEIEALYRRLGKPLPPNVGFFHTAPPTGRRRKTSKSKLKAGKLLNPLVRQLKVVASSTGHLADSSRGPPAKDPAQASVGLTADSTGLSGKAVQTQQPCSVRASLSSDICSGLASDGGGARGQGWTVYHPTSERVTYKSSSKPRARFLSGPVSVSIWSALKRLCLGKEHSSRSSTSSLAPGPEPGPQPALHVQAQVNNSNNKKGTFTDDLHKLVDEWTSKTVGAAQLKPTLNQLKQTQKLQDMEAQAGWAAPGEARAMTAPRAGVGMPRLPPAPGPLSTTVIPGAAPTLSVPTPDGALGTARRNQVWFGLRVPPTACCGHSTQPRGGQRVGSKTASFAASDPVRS
UniProt P54756, sequence (whole entry, looked up): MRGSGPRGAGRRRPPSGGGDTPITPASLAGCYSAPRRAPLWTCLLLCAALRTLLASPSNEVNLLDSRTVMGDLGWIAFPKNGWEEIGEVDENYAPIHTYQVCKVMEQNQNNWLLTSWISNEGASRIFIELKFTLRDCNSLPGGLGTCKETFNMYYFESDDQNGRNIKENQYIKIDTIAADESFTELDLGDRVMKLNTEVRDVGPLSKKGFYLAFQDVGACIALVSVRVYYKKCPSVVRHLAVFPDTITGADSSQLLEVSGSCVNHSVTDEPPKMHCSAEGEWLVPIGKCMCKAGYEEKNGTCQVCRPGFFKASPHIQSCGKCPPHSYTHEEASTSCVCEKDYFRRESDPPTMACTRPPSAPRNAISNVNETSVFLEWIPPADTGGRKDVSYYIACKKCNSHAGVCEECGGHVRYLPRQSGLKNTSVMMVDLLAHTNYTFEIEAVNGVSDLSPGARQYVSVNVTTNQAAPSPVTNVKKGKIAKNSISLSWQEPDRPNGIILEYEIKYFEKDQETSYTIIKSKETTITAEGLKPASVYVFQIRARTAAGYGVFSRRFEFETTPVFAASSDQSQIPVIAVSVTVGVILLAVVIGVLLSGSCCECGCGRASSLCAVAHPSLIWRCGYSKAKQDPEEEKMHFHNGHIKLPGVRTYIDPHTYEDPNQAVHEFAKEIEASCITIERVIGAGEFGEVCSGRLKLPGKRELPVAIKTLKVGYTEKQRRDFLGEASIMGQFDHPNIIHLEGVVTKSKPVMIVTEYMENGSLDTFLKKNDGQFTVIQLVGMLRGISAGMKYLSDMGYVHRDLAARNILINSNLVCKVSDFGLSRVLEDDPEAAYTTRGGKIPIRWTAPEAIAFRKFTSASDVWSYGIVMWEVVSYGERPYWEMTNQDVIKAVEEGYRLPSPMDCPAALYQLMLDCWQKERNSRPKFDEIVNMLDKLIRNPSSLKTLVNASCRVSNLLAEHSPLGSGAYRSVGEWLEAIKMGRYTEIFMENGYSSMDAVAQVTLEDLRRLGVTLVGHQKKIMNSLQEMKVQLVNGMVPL
UniProt P42685, sequence (whole entry, looked up): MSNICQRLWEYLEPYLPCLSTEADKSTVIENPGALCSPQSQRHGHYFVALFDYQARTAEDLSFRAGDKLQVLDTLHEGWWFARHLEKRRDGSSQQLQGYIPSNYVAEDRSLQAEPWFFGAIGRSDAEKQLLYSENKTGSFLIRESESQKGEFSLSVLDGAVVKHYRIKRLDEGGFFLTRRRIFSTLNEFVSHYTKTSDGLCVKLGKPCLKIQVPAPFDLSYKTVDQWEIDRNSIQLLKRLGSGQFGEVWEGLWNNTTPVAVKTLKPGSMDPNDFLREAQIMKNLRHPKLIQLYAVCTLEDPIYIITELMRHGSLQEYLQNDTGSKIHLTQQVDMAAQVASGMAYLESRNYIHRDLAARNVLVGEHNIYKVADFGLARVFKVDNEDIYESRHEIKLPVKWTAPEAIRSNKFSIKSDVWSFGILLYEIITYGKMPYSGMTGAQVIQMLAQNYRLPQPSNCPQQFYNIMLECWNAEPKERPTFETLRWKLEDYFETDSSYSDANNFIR

Study 1
SMILES: FC(F)(F)c1ccc(/C=C/c2nc(COc3ccc(CCCCn4ccnn4)cc3)co2)cc1
Read-out: enzyme activity
Mode: inhibitor
Concentration: 0.5 µM
Relative to: control
Quantity: remaining activity
AKT3 (Homo sapiens, UniProt Q9Y243): 96.3%
LRRK2 (Homo sapiens, UniProt Q5S007): 94.8%
PRKCI (Homo sapiens, UniProt P41743): 92.6%
EPHA5 (Homo sapiens, UniProt P54756): 99.9%
BTK (Homo sapiens, UniProt Q06187): 98.2%
MAP4K2 (Homo sapiens, UniProt Q12851): 105%
KIT (Homo sapiens, UniProt P10721): 98.8%
CSNK2A1 (Homo sapiens, UniProt P68400): 97.5%
PRKCD (Homo sapiens, UniProt Q05655): 99.6%
MKNK2 (Homo sapiens, UniProt Q9HBH9): 101%
CSNK1A1 (Homo sapiens, UniProt P48729): 98.4%

Study 2
Target: RNA binding protein fox-1 homolog 2, RRM domain, GST-SBP tag (RBFOX2, Homo sapiens, UniProt O43251-10, residues 100-194)
Technique: RNA Bind-n-Seq
Molecule type: RNA
Sample: in vitro
Concentration: 365 nM
Setting: natural RNA segment, single round, ends assumed
Relative to: no-protein control
Direction: higher = stronger binding
Quantity: RBNS enrichment (R)
Shared flanks, not repeated: GGGAGUUCUACAGUCCGACGAUC … UGGAAUUCUCGGGUGCCAA
GUCUGCACAAGGAGUGCCUUCUCAUGCUGAUUUGCAGACGGGGCACCCCUGUGGAGGGGCUGCUGUGGGCCCUGACCUCCAAGCUCCUGCCUCACCGUCUGCCUUGCUCC: 0.577
UCUCCCGAGAGUGGCAGUCCUUUGAAUCGCUUCCCAGGGUGAAAGAUGGAAAGAGAUGAGCCUAAGGAUACCAGGUUCAAAACGGUUAUGACCAUACACACAGGCAUUUU: 0.492
UUGUAUCACAAAUCAGUGUUAAAACACCAGAACUUUAGCCAAAAUAAAUGUCUUACAUUACAAAGGUUUGUUUUUUUGUCCUUCUUAUCACAGUUGGUAUUCUUUUACGU: 0.674
UUAACAUUAAUAGAACAAUCCAAAUGUUGAGCAUAUUUUGAUAUUAAACUAAAGAUCACGUCUCUGUUUUUAAAUUAUGCUAACACCACCACAGAUUAUGUUGACGUAUU: 0.374
UUUUUAUGAAAAAAAAGGAAAAUGGUUUCCCAUUUGGUUUUAUAUGUGUUAAAUAAAUGUGUAAAGUAACCACCAAAUGUUAUUAGAAUUUUUCUUCUAGCAUUUAUAAU: 0.586
UUGAAAUUUAACCCUGCUCCAUAUUCUAACCUGUUAUGCAGGUACACUGUUAUCUUGCCCUGUGUCUCAAUCCUGGUUGUCUAAGUUGGGACACCUGAGUCUCUUCCUCU: 0.819
CCACCCUCACAGUUCUAACUUAGCAAGUGCUUUUCUUUAGAACCCCUUCUUAACGAGCAAUAUGUCUGACCUGUACUAUAAGAUCUUUCUGAUAACGCAGAGAUUUUUUG: 0.463
ACCAACUGUAGGAGUCAGAGGUGUUGGCAAAAGUAUGCAUGAAUGCUAACCUUUGCACAUACUCUGUUUUUACUUUGAUGGCUUCUCCAGGUUUUUGUCAGGUACCACAU: 0.633

Study 3
Target: PABPC1L2, full length, GST fusion (mouse, UniProt A0ABA7IW68)
Technique: RNAcompete
Molecule type: RNA
Sample: in vitro
Concentration: 20 nM
Setting: 7-mer, probes averaged, single round
Relative to: mean of 7-mers
Direction: higher = stronger binding
Quantity: 7-mer Z-score
Target sequence (chain): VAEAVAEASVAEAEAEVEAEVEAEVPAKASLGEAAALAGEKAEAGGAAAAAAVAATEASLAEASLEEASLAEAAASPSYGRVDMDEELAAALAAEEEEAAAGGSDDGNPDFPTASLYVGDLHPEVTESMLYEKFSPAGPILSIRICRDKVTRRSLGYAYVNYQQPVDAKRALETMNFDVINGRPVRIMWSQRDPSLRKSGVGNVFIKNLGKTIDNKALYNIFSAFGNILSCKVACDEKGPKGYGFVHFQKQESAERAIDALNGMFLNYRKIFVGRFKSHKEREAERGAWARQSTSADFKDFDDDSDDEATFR
GAACAAA: 1.62
ACCUAGG: -0.153
AACGUGU: 0.0315
CGCUCUA: -0.3
UUAGUGU: -0.204
UGUUUUA: -0.354
GCAGGGG: 0.167
GGGUUGU: -0.217

Study 4
SMILES: CNCc1ccccc1-c1csc([C@@H](C)Nc2nc(C)nc3cc(OC)c(OC)cc23)c1
Read-out: cell-free assay
Technique: competition with immobilised ligand
Concentration: 1 µM
Quantity: remaining binding
BMPR1B (Homo sapiens, UniProt O00238): 83%
STK35 (Homo sapiens, UniProt Q8TDR2): 91%
Ribosomal protein S6 kinase alpha-5, C-terminal kinase domain (RPS6KA5, Homo sapiens, UniProt O75582): 89%
MAP3K13 (Homo sapiens, UniProt O43283): 80%
KIT (Homo sapiens, UniProt P10721, A829P): 87%
EIF2AK2 (Homo sapiens, UniProt P19525): 90%
ALK (Homo sapiens, UniProt Q9UM73): 79%
FGFR3 (Homo sapiens, UniProt P22607, G697C): 85%
WNK2 (Homo sapiens, UniProt Q9Y3S1): 72%
RIOK3 (Homo sapiens, UniProt O14730): 94%
FRK (Homo sapiens, UniProt P42685): 100%
MAP3K11 (Homo sapiens, UniProt Q16584): 99%
CDK13 (Homo sapiens, UniProt Q14004): 89%

A few entries again (study 1):
CSNK2A1 (Homo sapiens, UniProt P68400): 97.5%
PRKCD (Homo sapiens, UniProt Q05655): 99.6%
